Measured values of several laboratories.
Parts stem from different laboratories: compare values within a part only. Positions count from the first letter of the parent shown.

Sample 1
Target: CEBPD, bZIP domain (human)
Method: DHFR protein complementation
Sample: yeast
Setting: single substitutions, most at no-binding floor
Reference: wild-type JUN-FOS pair
Reading: higher = stronger binding
Starting sequence: JUN, bZIP domain (human); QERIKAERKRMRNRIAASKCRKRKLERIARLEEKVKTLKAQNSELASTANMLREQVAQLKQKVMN; partner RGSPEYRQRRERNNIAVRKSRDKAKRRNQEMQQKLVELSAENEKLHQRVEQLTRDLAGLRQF
The binding fitness of `A40Q` is reported as -1.23 natural log.
`E54Y` has a binding fitness of -1.52 natural log.
The binding fitness of `E44V` is reported as -1.35 natural log.
For `Q55D`, the binding fitness was -1.52 natural log.
`L31S` gave a binding fitness of -1.49 natural log.
For `A49Y`, the binding fitness was -1.39 natural log.
With `E54V` the binding fitness was -1.46 natural log.
`L45M` gave a binding fitness of -1.43 natural log.
The binding fitness of `A49C` is reported as -1.29 natural log.
The binding fitness of `L52K` is reported as -1.57 natural log.
For `N42L`, the binding fitness was -1.45 natural log.
For `A57P`, the binding fitness was -1.52 natural log.
`S47T` gave a binding fitness of -1.27 natural log.
With `E32C` the binding fitness was -1.42 natural log.
`S43C` has a binding fitness of -1.35 natural log.
The binding fitness of `N42V` is reported as -1.35 natural log.
`S43A` gave a binding fitness of -1.24 natural log.

Sample 2
Target: ABI1, truncated, D143A, DHFR fusion (Arabidopsis thaliana)
Method: DHFR PCA, deep sequencing
Sample: yeast
Setting: methotrexate growth selection, single substitutions
With: (+)-ABA 17 µM
Reference: wild-type fitted maximum
Reading: higher = stronger binding
Starting sequence: PYL1, truncated, DHFR fusion (Arabidopsis thaliana); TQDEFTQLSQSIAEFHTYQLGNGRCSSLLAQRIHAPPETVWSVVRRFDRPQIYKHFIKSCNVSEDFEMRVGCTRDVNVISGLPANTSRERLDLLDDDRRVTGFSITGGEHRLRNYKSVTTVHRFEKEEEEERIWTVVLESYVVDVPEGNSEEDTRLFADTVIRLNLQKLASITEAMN
Under “relative binding score”, `D3F` is recorded as 74.2%.
For `G81L`, “relative binding score” read 19.4%.
For `N85R`, “relative binding score” read 89.6%.
Under “relative binding score”, `E4S` is recorded as 68%.
For `G71P`, “relative binding score” read 9.57%.
Under “relative binding score”, `E89P` is recorded as -19.7%.
For `E38R`, “relative binding score” read 36.3%.
`V40G`: “relative binding score” -24.1%.
`W134D` — result for “relative binding score”: 89.2%.
Under “relative binding score”, `A175W` is recorded as 66.4%.
`F157N`: “relative binding score” -21%.
Under “relative binding score”, `H16R` is recorded as 0.384%.
Under “relative binding score”, `Q31D` is recorded as 9.19%.
`R69T`: “relative binding score” 84.9%.
`E152F` — result for “relative binding score”: 67.5%.
For `S11I`, “relative binding score” read 76.3%.
`F66L` — result for “relative binding score”: 60.3%.
Under “relative binding score”, `L169T` is recorded as -13.2%.

Sample 3
Target: CCNB1, cyclin fold, Cln2 fusion (human)
Method: yeast growth competition, sequencing
Sample: yeast
Setting: weak parent motif
Reference: not given
Reading: higher = stronger binding
Starting sequence: PPP1R3F docking peptide (human); VAPRRVLFADEAL
For `P3A`, “normalised enrichment score” read -0.0267.
For `R4A`, “normalised enrichment score” read 0.592.
Under “normalised enrichment score”, `R5A L7A` is recorded as -0.14.
`V6A` — result for “normalised enrichment score”: 0.338.
`R5K F8L` — result for “normalised enrichment score”: 0.185.
For `F8L`, “normalised enrichment score” read 0.139.
For `L7A`, “normalised enrichment score” read 0.677.
`V1A`: “normalised enrichment score” 0.623.

Sample 4
Target: Histone acetyltransferase KAT6A, both winged helices, GST fusion (KAT6A, Homo sapiens, UniProt Q92794, residues 1-181)
Method: protein binding microarray
Form: double-stranded DNA, one strand shown
Sample: in vitro
Tested at: not given
Setting: 8-mer, flanks averaged, mean of 2 arrays, mostly near background
Reference: not given
Reading: higher = stronger binding
Construct (chain): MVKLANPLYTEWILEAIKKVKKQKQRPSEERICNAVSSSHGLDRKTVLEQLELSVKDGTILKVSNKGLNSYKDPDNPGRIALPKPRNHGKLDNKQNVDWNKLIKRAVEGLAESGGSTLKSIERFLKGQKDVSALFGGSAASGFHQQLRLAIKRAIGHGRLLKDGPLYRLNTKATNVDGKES
With `AGGAGCTG` the E-score was -0.24.
`GCCCTTAA` gave an E-score of -0.104.
`CCGGGACA` has an E-score of 0.186.
For `AAGTCGGC`, the E-score was 0.0677.
`AAATGGTC` gave an E-score of -0.122.
With `GTCTATTA` the E-score was -0.0785.
The E-score of `CCACGAGA` is reported as -0.167.
`ATCTGGGG` has an E-score of -0.216.
`CACCGAAA` has an E-score of -0.0622.
The E-score of `ACATCAAC` is reported as 0.0327.
`AATTATAA` has an E-score of -0.0821.
`ACCGCCGT` gave an E-score of 0.331.
For `CCTAACGA`, the E-score was -0.0728.
For `GGGATCCA`, the E-score was 0.0548.
With `TGGCACAA` the E-score was -0.236.
`AGACATCG` gave an E-score of -0.0794.
`GGATAACA` gave an E-score of -0.155.
The E-score of `CAAAGCTA` is reported as -0.0214.
`AATGTTTA` has an E-score of -0.0551.
The E-score of `GCGCTAAA` is reported as 0.289.
The E-score of `ACCATGTA` is reported as -0.0301.
For `TCCCAGGA`, the E-score was -0.154.
The E-score of `CGGAAAGC` is reported as 0.215.
`CGTATTTC` gave an E-score of -0.0123.
